{"data": "Assay results of several laboratories", "note": "Protocols differ between the studies behind these lines."}
{"SMILES": "Cc1cn([C@H]2O[C@@H](CO[P@@](=O)(N[C@@H](C)C(=O)OC(C)C)Oc3ccccc3)[C@H](O)[C@H]2F)c(=O)[nH]c1=O", "assay": "item: external ear pain", "system": "human", "conditions": "25 mg", "quantity": "patients with TEAE", "value": "0%"}
{"SMILES": "C[C@]1(O)C[C@@](N)(c2ccc(-c3nc4n(c3-c3ccccc3)COc3ccncc3-4)cc2)C1", "system": "human, advanced or metastatic solid tumours", "conditions": "20 mg once daily, phase I dose escalation", "quantity": "patients with Hyperphosphatemia TEAE", "value": "50%"}
{"SMILES": "COc1ncnn2ccc(-c3cnc4nc(C)n(Cc5nnc([C@@H](C)F)o5)c4c3)c12", "system": "human", "conditions": "oral, dose not given, grade 4", "quantity": "patients with increased blood creatinine", "value": "0%"}
{"SMILES": "C=CC(=O)Nc1cc(Nc2nccc(Nc3cc(Cl)c(F)cc3C(C)(C)O)n2)c(OC)cc1N1CC[C@@H](N(C)C)C1", "system": "human patients", "conditions": "oral, 400 mg, treatment-emergent adverse events", "quantity": "patients with mouth ulceration", "value": "20%"}
{"SMILES": "CCS(=O)(=O)Nc1ccc(Oc2ccc(F)cc2F)c(-c2cn(C)c(=O)c3[nH]ccc23)c1", "assay": "item: Pneumonia", "system": "human, relapsed/refractory AML", "conditions": "oral, dose not given, trial, with: alone or with venetoclax", "quantity": "patients with serious adverse event", "value": "16%"}
{"SMILES": "CCN(CCO)CCCC(C)Nc1ccnc2cc(Cl)ccc12 (centres unmarked)", "system": "human, newly diagnosed glioblastoma", "conditions": "oral, 400 mg/dose, WBC decrease grade 1, with RT and TMZ", "quantity": "patients with adverse event", "value": "33%"}
{"SMILES": "O=C(c1ccc(F)c(F)c1Nc1ccc(I)cc1F)N1CC(O)([C@@H]2CCCCN2)C1", "system": "human patients", "conditions": "oral, dose not given, dose escalation, suspension", "quantity": "patients with treatment-related SAE", "value": "4%"}
{"SMILES": "C[C@@H]1OC(=O)NN=C1c1ccc(-c2ccc(F)cc2)c(C(F)(F)F)c1", "assay": "phase I trial, item: Cough all grades", "system": "human patients", "conditions": "5 mg once daily", "quantity": "patients with adverse event", "value": "0%"}
{"note": "For quick reference, copied from above:"}
{"SMILES": "O=C(c1ccc(F)c(F)c1Nc1ccc(I)cc1F)N1CC(O)([C@@H]2CCCCN2)C1", "system": "human patients", "conditions": "oral, dose not given, dose escalation, suspension", "quantity": "patients with treatment-related SAE", "value": "4%"}
